{"data": "Published values pooled from the literature", "note": "Protocols differ between the studies behind these lines. Numbers after ± are the reported error.", "sequence of UniProt P07384 (whole entry, looked up)": "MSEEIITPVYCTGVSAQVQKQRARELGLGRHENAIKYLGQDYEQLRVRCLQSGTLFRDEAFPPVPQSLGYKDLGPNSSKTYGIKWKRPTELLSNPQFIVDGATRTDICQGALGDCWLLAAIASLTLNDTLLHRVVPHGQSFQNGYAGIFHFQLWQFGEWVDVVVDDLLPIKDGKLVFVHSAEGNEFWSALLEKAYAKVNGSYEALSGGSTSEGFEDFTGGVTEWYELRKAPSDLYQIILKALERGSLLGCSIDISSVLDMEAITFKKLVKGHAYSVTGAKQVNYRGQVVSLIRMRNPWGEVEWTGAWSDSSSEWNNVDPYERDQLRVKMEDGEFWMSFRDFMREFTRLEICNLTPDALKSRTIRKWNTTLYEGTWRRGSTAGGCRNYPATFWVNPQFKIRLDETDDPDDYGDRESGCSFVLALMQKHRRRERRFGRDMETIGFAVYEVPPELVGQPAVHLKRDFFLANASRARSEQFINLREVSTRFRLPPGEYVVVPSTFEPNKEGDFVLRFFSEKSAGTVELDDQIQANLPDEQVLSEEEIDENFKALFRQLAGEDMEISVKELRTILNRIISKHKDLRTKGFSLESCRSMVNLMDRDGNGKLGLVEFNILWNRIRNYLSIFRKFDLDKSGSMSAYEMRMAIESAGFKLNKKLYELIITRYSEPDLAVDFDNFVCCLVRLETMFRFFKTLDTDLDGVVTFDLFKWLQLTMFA", "sequence of UniProt P55060 (whole entry, looked up)": "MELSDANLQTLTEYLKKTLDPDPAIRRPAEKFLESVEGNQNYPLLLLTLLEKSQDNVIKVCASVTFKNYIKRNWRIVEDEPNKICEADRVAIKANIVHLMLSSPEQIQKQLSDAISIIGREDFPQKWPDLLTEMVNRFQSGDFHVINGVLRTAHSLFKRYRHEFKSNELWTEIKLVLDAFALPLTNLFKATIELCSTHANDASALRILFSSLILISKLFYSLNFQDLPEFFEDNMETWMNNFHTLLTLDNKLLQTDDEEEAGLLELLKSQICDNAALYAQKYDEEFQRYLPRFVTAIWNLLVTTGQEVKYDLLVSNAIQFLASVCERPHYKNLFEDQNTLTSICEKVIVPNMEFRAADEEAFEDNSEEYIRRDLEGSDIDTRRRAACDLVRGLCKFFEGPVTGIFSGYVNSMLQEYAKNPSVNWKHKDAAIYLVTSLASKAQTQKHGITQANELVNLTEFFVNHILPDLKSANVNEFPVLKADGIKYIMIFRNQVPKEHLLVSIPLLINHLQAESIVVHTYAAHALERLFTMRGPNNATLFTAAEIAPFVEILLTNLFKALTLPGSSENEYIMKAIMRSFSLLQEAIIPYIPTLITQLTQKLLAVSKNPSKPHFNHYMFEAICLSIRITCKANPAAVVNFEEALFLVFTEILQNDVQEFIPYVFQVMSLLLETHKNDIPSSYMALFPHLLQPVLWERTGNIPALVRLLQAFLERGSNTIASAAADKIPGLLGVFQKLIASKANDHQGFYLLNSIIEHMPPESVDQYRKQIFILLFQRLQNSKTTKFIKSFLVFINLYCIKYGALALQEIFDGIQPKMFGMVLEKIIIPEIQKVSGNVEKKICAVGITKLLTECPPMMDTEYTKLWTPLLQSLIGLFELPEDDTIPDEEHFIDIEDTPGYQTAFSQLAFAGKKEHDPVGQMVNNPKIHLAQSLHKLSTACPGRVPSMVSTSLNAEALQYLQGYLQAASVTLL"}
{"Compound": "N[C@@H]1c2ccccc2OC12CCN(c1cnc3c(N4CCCc5ncccc54)n[nH]c3n1)CC2", "system": "patients advanced metastatic solid tumours", "conditions": "oral, 60 mg once daily, pooled RP2D cohorts", "endpoint": "incidence of any serious TEAE", "value": "28%"}
{"Compound": "CC(C)NCCCC[C@@H]1NC(=O)[C@H](Cc2ccc(O)cc2)NC(=O)[C@H](Cc2ccccc2)NC(=O)CC[C@H](C(=O)N[C@@H](CCCCNC(C)C)C(=O)N[C@@H](CCCCNC(=O)[C@H](CCC(=O)O)NC(=O)[C@H](CCC(=O)O)NC(=O)[C@H](CCC(=O)O)NC(=O)CN2CCN(CC(=O)O)CCN(CC(=O)O)CC2)C(N)=O)NC(=O)CNC(=O)[C@H](Cc2ccc3ccccc3c2)NC(=O)[C@@H](CCCNC(=N)N)NC1=O [fluorine-18 labelled]", "test": "radio-HPLC", "system": "human serum", "conditions": "2 h, 37 °C", "endpoint": "intact compound", "value": "> 99%"}
{"Compound": "CC(C)[C@@H]1NC(=O)CNC(=O)[C@H](CC(N)=O)NC(=O)[C@H](CCCNC(=N)N)NC(=O)[C@H](Cc2ccc(O)cc2)NC(=O)[C@H](C(C)C)NC(=O)[C@@H](NC(=O)[C@@H](NC(=O)[C@H](CC(N)=O)NC(=O)[C@H](Cc2c[nH]c3ccccc23)NC(=O)[C@H](C)NC(=O)[C@H](Cc2ccccc2)NC(=O)CN)C(C)C)CSSC[C@@H](C(=O)N[C@@H](Cc2cnc[nH]2)C(=O)N[C@@H](CCCNC(=N)N)C(=O)N[C@@H](CCCNC(=N)N)C(=O)N[C@@H](C)C(=O)N[C@@H](CC(N)=O)C(N)=O)NC(=O)[C@H](C(C)C)NC(=O)[C@H](CCCNC(=N)N)NC1=O", "system": "ICR mouse, blood", "conditions": "intramammary, 5 mg/kg, day 5, 3 d dosing", "endpoint": "creatinine", "value": "84.9 ± 4.37 µmol/L"}
{"Compound": "O=C(O)CCCOc1ccc(F)cc1-c1cc(-c2ccccc2C(F)(F)F)n(-c2ccccc2)n1", "system": "male Crl:CD(SD) rats, spleen", "conditions": "intravenous, 25 µg/kg, 14 d", "endpoint": "organ weight", "value": "0.71 ± 0.09 g"}
{"Compound": "Clc1ccc(-c2cc(Cl)c(Cl)cc2Cl)cc1Cl", "system": "cow whole milk", "conditions": "200 nM", "scale": "baseline: milk fat over skim milk", "endpoint": "milk fat partition ratio", "value": 368}
{"Compound": "C[C@]1(CO)Cc2ncn(-c3ccc(C#N)c(Cl)c3)c2C(=O)O1", "system": "healthy Japanese adults, plasma", "conditions": "3 mg single dose", "endpoint": "Cmax", "value": "202 nM"}
{"Compound": "COc1cc(Nc2ncc(F)c(Nc3ccc4c(n3)NC(=O)C(C)(C)O4)n2)cc(OC)c1OC", "target or system": "CAPN1 (Homo sapiens, UniProt P07384)", "endpoint": "IC50", "value": "> 10 µM"}
{"Compound": "CO[C@H]1C[C@@H]2CC[C@@H](C)[C@@](O)(O2)C(=O)C(=O)N2CCCC[C@H]2C(=O)O[C@H]([C@H](C)C[C@@H]2CC[C@@H](OC(=O)NCCOCCOCCOCCOCCOCCOCCOCCOCCC(=O)N3CCc4cc(Cn5nc(-c6ccc7oc(N)nc7c6)c6c(N)ncnc65)ccc4C3)[C@H](OC)C2)C[C@@H](O)[C@H](C)/C=C(\\C)[C@@H](O)[C@@H](OC)C(=O)[C@H](C)C[C@H](C)/C=C/C=C/C=C/1C", "system": "patients with advanced solid tumours", "conditions": "intravenous, 12 mg weekly, grade 3 or higher", "endpoint": "diarrhoea incidence", "value": "0%"}
{"Compound": "C[C@H]1CN(c2n[nH]c3nc(N[C@H]4CC[C@H](NS(=O)(=O)CCC(F)(F)F)CC4)ncc23)CCO1", "target or system": "Exportin-2 (Homo sapiens, UniProt P55060)", "test": "competitor, Kinobeads competition", "system": "human cell extract", "conditions": "20 µM", "scale": "baseline: vehicle", "endpoint": "relative abundance", "value": 1.23}
{"Compound": "O=C(Nc1ccccc1)C1CCN(C(=O)Oc2cccnc2)CC1", "test": "refers to: Fatigue", "system": "healthy female human", "conditions": "concentration not given, all doses pooled", "endpoint": "adverse event incidence", "value": "29%"}
{"Compound": "CN1CC[C@@H](c2c(O)cc(O)c3c(=O)cc(-c4ccc(C(F)(F)F)cc4Cl)oc23)[C@@H]1CO", "test": "refers to: Fatigue", "system": "B-cell malignancies", "conditions": "oral, 200 mg, intermittent dosing", "endpoint": "patients with adverse event", "value": "0%"}
{"Compound": "CC(=O)c1c(C)c2cnc(Nc3ccc(C4CCN(CCS(C)(=O)=O)CC4)cn3)nc2n(C2CCCC2)c1=O", "system": "human patients, plasma", "conditions": "oral, 100 mg twice daily, day 21 multiple doses", "endpoint": "AUC(0-t)", "value": "1720 ng·h/mL"}
{"Compound": "O=c1cc(-c2ccc(O)c(O)c2)oc2cc(O)cc(O)c12", "system": "male Sprague-Dawley rat, lean", "conditions": "oral, 100 mg/kg of neohesperidin, 0 to 12 h, after β-glucuronidase/sulfatase hydrolysis", "endpoint": "urinary excreted amount, total", "value": "249 ± 55.2 ng"}
{"Compound": "CC1(C)NC(=O)N(c2ccc(F)c(OC(F)(F)F)c2)C1=O", "system": "Schistosoma mansoni-infected NMRI mice", "conditions": "oral, 100 mg/kg, single dose", "endpoint": "toxicity", "value": "toxic"}
{"Compound": "C1=Cc2nc1cc1ccc([n-]1)c(C1CC1)c1nc(cc3ccc([n-]3)c2C2CC2)C=C1.CC(=O)[O-].[Mn+3]", "test": "LC-MS/MS", "system": "Sprague-Dawley rat, plasma", "conditions": "oral gavage, dose not given, 360 min", "endpoint": "mean plasma concentration", "value": "259 ng/mL"}
{"Compound": "CC(C)n1c(C2CCNCC2)nc2c([N+](=O)[O-])c(Br)c(Br)cc21", "test": "refers to: Anemia", "system": "AML patients", "conditions": "dose not given, all doses", "endpoint": "grade ≥3 adverse events", "value": "29%"}
{"note": "For quick reference, copied from above:"}
{"Compound": "CC(=O)c1c(C)c2cnc(Nc3ccc(C4CCN(CCS(C)(=O)=O)CC4)cn3)nc2n(C2CCCC2)c1=O", "system": "human patients, plasma", "conditions": "oral, 100 mg twice daily, day 21 multiple doses", "endpoint": "AUC(0-t)", "value": "1720 ng·h/mL"}
